{"data": "Published values pooled from the literature", "note": "Protocols differ between the studies behind these lines. Several values in a cell are separate wells, animals, samples, runs or records. ± marks the error that the study gave."}
{"SMILES": "O=C(O)c1ccc(-c2nc(-c3ccccc3Cl)c3sccn23)cc1", "cell line": "K562", "assay": "megakaryocyte differentiation, flow cytometry", "setting": "0.1 mM, 72 h", "how to read": "reference: untreated", "measurement": "CD61 fluorescence intensity", "value": "1.03 fold change and 1.17 fold change"}
{"SMILES": "O=C(C[Se]C(=O)c1ccccc1)Nc1cccc(C(F)(F)F)c1", "cell line": "NCI60 prostate subpanel (PC-3, DU-145)", "assay": "total growth inhibition, inhibitor", "setting": "five-dose", "measurement": "mean TGI", "value": "4.99 µM"}
{"SMILES": "CC(C)CC(O)(CC(C)C)c1cn(C(=O)N2CCCC2)nn1", "cell line": "mouse T-cells", "assay": "N-terminal labelling enrichment, refers to: Samsn1 N-terminal peptides", "setting": "1 nM, 6 h, protein median", "how to read": "reference: DMSO", "measurement": "SILAC ratio", "value": 0.56}
{"SMILES": "COc1ccc2c(c1)c(CC(=O)[Se]CC(=O)Nc1cccc(C(F)(F)F)c1)c(C)n2C(=O)c1ccc(Cl)cc1", "cell line": "NCI60 prostate subpanel (PC-3, DU-145)", "assay": "cytotoxicity, inhibitor", "setting": "five-dose", "measurement": "CC50", "value": "7.42 µM"}
{"SMILES": "CC(C)(C)C(=O)OCOP(=O)(OCOC(=O)C(C)(C)C)C1CCCN(O)C1=O (stereo not shown)", "cell line": "SR", "measurement": "GI50", "value": "0.433 µM"}
{"SMILES": "CC(=O)NCSC[C@H](NC(=O)[C@@H]1CCCN1C(=O)[C@H](C)NC(=O)[C@@H](NC(=O)CNC(=O)[C@@H](NC(=O)[C@H](Cc1c[nH]c2ccccc12)NC(=O)[C@H](C)NC(=O)CNC(=O)[C@H](CO)NC(=O)[C@H](C)NC(=O)[C@@H]1CCCN1C(=O)[C@H](Cc1c[nH]c2ccccc12)NC(=O)[C@H](C)NC(=O)[C@H](C)NC(=O)[C@@H](N)Cc1ccc(O)cc1)[C@@H](C)O)[C@@H](C)O)C(=O)N[C@@H](CO)C(=O)N[C@@H](C)C(=O)NCC(=O)N[C@H](C(=O)NCCOCCOCCOCCOCCOCCOCCOCCOCCOCCOCCOCCOCCC(=O)N[C@@H](CS)C(N)=O)[C@@H](C)O", "cell line": "HCC515", "assay": "phage binding", "how to read": "reference: targeting over control phage", "measurement": "selectivity ratio", "value": "1.7 ± 0.29"}
{"SMILES": "O=C(C[Se]C(=O)c1cccs1)Nc1cccc(C(F)(F)F)c1", "cell line": "NCI60 prostate subpanel (PC-3, DU-145)", "assay": "total growth inhibition, inhibitor", "setting": "five-dose", "measurement": "mean TGI", "value": "3.35 µM"}
{"SMILES": "CSCC[C@H](NC(=O)[C@@H](NC(=O)[C@H](CCC(N)=O)NC(=O)[C@H](CO)NC(=O)[C@@H](N)C(C)C)[C@@H](C)O)C(=O)N[C@@H](CCCNC(=N)N)C(=O)N[C@@H](CCC(N)=O)C(=O)N[C@H](C(=O)N[C@@H](C)C(=O)N[C@H](C(=O)N1CCC[C@H]1C(=O)N[C@@H](CC(C)C)C(=O)N[C@@H](CC(C)C)C(=O)N[C@@H](Cc1c[nH]c2ccccc12)C(=O)N[C@@H](Cc1ccccc1)C(=O)N[C@@H](Cc1c[nH]c2ccccc12)C(=O)N[C@H](C(=O)NCC(=O)N[C@@H](CO)C(=O)N[C@@H](CC(C)C)C(=O)NCCOCCOCCOCCOCCOCCOCCOCCOCCOCCOCCOCCOCCC(=O)N[C@@H](CS)C(N)=O)[C@@H](C)O)C(C)C)[C@@H](C)O", "cell line": "H157 lung squamous carcinoma", "assay": "cell binding, phage binding, refers to: output/input phage", "setting": "10 min, 37 °C", "how to read": "reference: control phage", "measurement": "selectivity ratio", "value": "14 ± 4.6"}
{"SMILES": "Cc1cc(Oc2nc(N3CC[C@@H](c4ccncc4)C3)ncc2F)[nH]n1", "cell line": "SK-N-SH", "assay": "cell proliferation", "measurement": "IC50", "value": "> 100 µM"}
{"SMILES": "CC(C)[C@H](NC(=O)[C@H](CCCNC(=N)N)NC(=O)[C@@H]1CCCN1C(=O)[C@@H](NC(=O)[C@H](C)NC(=O)[C@H](Cc1ccc(O)cc1)NC(=O)[C@H](CCC(N)=O)NC(=O)[C@H](CCCCN)NC(=O)[C@H](CCCNC(=N)N)NC(=O)[C@@H]1CCCN1C(=O)[C@H](CCC(=O)O)NC(=O)[C@@H](NC(=O)[C@H](C)N)[C@@H](C)O)[C@@H](C)O)C(=O)N[C@@H](Cc1ccccc1)C(=O)N[C@@H](Cc1c[nH]c2ccccc12)C(=O)N[C@H](C(=O)N[C@@H](CC(=O)O)C(=O)N[C@@H](C)C(=O)N1CCC[C@H]1C(=O)NCC(=O)NCCOCCOCCOCCOCCOCCOCCOCCOCCOCCOCCOCCOCCC(=O)N[C@@H](CS)C(N)=O)[C@@H](C)O", "cell line": "T47D breast cancer", "assay": "cell binding, phage binding, refers to: output/input phage", "setting": "10 min, 37 °C", "how to read": "reference: control phage", "measurement": "selectivity ratio", "value": "24 ± 6"}
{"SMILES": "O=C(C[Se]C(=O)c1ccco1)Nc1cccc(C(F)(F)F)c1", "cell line": "NCI60 NSCLC subpanel", "assay": "NCI60 five-dose screen", "measurement": "CC50", "value": "44.2 µM"}
{"SMILES": "CC(C)C[C@H](NC(=O)[C@H](CC(=O)O)NC(=O)CNC(=O)[C@@H](N)CCCNC(=N)N)C(=O)N[C@@H](C)C(=O)N[C@H](C(=O)N[C@@H](CC(C)C)C(=O)N[C@@H](CCCNC(=N)N)C(=O)N[C@@H](CCC(N)=O)C(=O)N[C@@H](CC(C)C)C(=O)N[C@@H](C)C(=O)N[C@@H](CCC(N)=O)C(=O)N[C@@H](CCC(=O)O)C(=O)N[C@@H](CC(=O)O)C(=O)NCC(=O)N[C@H](C(=O)N[C@H](C(=O)NCC(=O)N[C@H](C(=O)N[C@@H](CCCNC(=N)N)C(=O)NCCOCCOCCOCCOCCOCCOCCOCCOCCOCCOCCOCCOCCC(=O)N[C@@H](CS)C(N)=O)C(C)C)C(C)C)C(C)C)[C@@H](C)O", "cell line": "PANC-1 pancreatic cancer", "assay": "cell binding, phage binding, refers to: output/input phage", "setting": "10 min, 37 °C", "how to read": "reference: control phage", "measurement": "selectivity ratio", "value": "1.4 ± 0.5"}
{"SMILES": "COc1ccccc1-c1ccncc1C(=O)Nc1nnc(OCc2ccc(Cl)cc2)s1", "cell line": "RPE-1 BRCA1 WT parental", "setting": "2 µM, run 1", "how to read": "reference: untreated", "measurement": "colony survival", "value": "88.9%"}
